Experimental data from different studies.
A part holds a random share of what one study measured.

Set 1 — technique: aptamer microarray, sandwich; form: DNA with 2'F-ANA; sample: in vitro; tested at: 200 nM; together with: Cy3 exosite-II aptamer, 400 nM; reading: higher = stronger binding; sequence: GGTTGGTGTGGTTGG
Target: Prothrombin, mature alpha-thrombin (F2, Homo sapiens, UniProt P00734)
Setting: whole 15-mer aptamer, many near background
Under “mean fluorescence intensity”, `2'F-ANA at 2 3 7 8 12 13 15` is recorded as 1090 a.u.
`2'F-ANA at 4 6 9 10 13`: “mean fluorescence intensity” 64.6 a.u.
Under “mean fluorescence intensity”, `2'F-ANA at 1 2 3 4 6 7 8 11 12` is recorded as 332 a.u.
For `2'F-ANA at 5 7 10 11 12`, “mean fluorescence intensity” read 53.1 a.u.
`2'F-ANA at 1 2 3 4 6 7 8 10 11` — result for “mean fluorescence intensity”: 82.4 a.u.
`2'F-ANA at 9 12 13 15` — result for “mean fluorescence intensity”: 612 a.u.
Under “mean fluorescence intensity”, `2'F-ANA at 1 3 4 5 7 10 15` is recorded as 44.6 a.u.
Under “mean fluorescence intensity”, `2'F-ANA at 2 5 8 9 11 12 15` is recorded as 112 a.u.
For `2'F-ANA at 4 8 9 10 11 13 14 15`, “mean fluorescence intensity” read 54.6 a.u.
For `2'F-ANA at 2 5 6 8 11 13 14 15`, “mean fluorescence intensity” read 46.7 a.u.
Under “mean fluorescence intensity”, `2'F-ANA at 1 4 7 8 9 11 12 14 15` is recorded as 62.7 a.u.
Under “mean fluorescence intensity”, `2'F-ANA at 1 3 6 7 8 9 12 15` is recorded as 577 a.u.
Under “mean fluorescence intensity”, `2'F-ANA at 1 3 5 7 9 12 13 14 15` is recorded as 104 a.u.
For `2'F-ANA at 5 8 10 15`, “mean fluorescence intensity” read 48.2 a.u.
Under “mean fluorescence intensity”, `2'F-ANA at 1 5 6 8 9 10 11 12 13 14` is recorded as 45.7 a.u.
For `2'F-ANA at 5 10 12 13 14 15`, “mean fluorescence intensity” read 44.9 a.u.
Under “mean fluorescence intensity”, `2'F-ANA at 1 4 7 12 14` is recorded as 62.4 a.u.
`2'F-ANA at 3 5 7 8 10 11 13 14 15`: “mean fluorescence intensity” 56.8 a.u.
`2'F-ANA at 2 5 7 10 12 14` — result for “mean fluorescence intensity”: 56.7 a.u.
`2'F-ANA at 1 2 3 4 7 13 14 15` — result for “mean fluorescence intensity”: 67.6 a.u.
For `2'F-ANA at 3 4 6 7 9 13 14 15`, “mean fluorescence intensity” read 226 a.u.
Under “mean fluorescence intensity”, `2'F-ANA at 2 5 6 7 8 9 13` is recorded as 55 a.u.
Under “mean fluorescence intensity”, `2'F-ANA at 1 4 5 12 13` is recorded as 77.5 a.u.

Set 2 — technique: RNAcompete; form: RNA; sample: in vitro; tested at: 20 nM; setting: 7-mer, probes averaged, single round; baseline: mean of 7-mers; reading: higher = stronger binding
Target: PABPC1L2, full length, GST fusion (mouse, UniProt A0ABA7IW68)
Construct (chain): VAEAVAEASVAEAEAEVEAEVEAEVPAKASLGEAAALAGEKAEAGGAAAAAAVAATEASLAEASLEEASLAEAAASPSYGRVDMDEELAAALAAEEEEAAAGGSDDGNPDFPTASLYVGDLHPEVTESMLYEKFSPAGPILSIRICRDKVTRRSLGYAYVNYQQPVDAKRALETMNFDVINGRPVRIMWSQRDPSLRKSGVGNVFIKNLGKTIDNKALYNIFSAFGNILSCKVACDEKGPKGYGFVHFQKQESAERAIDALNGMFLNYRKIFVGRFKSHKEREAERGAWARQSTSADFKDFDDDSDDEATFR
The 7-mer Z-score of `UGGCGUU` is reported as -0.128.
With `GGGCGAC` the 7-mer Z-score was 0.434.
`GAAAACU` has a 7-mer Z-score of 2.24.
For `CUGACAA`, the 7-mer Z-score was 0.316.
The 7-mer Z-score of `CAUCGCU` is reported as -0.447.
For `UCCCUAC`, the 7-mer Z-score was -0.447.
With `UGUUUUU` the 7-mer Z-score was -0.378.
`GACGUGA` gave a 7-mer Z-score of -0.135.
For `UUUGUAA`, the 7-mer Z-score was -0.112.
`AAACUCC` gave a 7-mer Z-score of 0.427.
The 7-mer Z-score of `CACUGAC` is reported as -0.15.
The 7-mer Z-score of `UUAUUUG` is reported as -0.171.
`GAUUCCG` gave a 7-mer Z-score of -0.311.
For `AGCCCCU`, the 7-mer Z-score was -0.318.
`AAAAGAA` has a 7-mer Z-score of 7.26.
With `AAAUUGU` the 7-mer Z-score was 1.21.
For `AGGUCAU`, the 7-mer Z-score was -0.0899.
With `UAUAAGU` the 7-mer Z-score was -0.13.
`AUUACUA` has a 7-mer Z-score of 0.017.
For `UAGUUGC`, the 7-mer Z-score was -0.32.
The 7-mer Z-score of `AACAUUU` is reported as 0.227.
With `AAUAUCG` the 7-mer Z-score was 0.278.

Set 3 — technique: protein binding microarray; form: double-stranded DNA, one strand shown; sample: in vitro; tested at: not given; baseline: not given; reading: higher = stronger binding
Target: Histone acetyltransferase KAT6A, both winged helices, GST fusion (KAT6A, Homo sapiens, UniProt Q92794, residues 1-181)
Setting: 8-mer, flanks averaged, mean of 2 arrays, mostly near background
Target sequence (chain): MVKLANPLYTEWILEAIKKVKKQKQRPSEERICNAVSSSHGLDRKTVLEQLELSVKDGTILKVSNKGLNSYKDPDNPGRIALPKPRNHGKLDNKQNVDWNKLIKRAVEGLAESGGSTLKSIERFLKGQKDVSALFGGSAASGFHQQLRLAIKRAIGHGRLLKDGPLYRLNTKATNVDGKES
`CCTCCCTA` has an E-score of -0.241.
`ACGTTTAC` has an E-score of 0.0227.
The E-score of `GCTGCGAC` is reported as 0.0827.
`AGGAGCCG` has an E-score of 0.00775.
With `CTGGGGGA` the E-score was -0.186.
`GGGAGTAA` gave an E-score of -0.134.
For `CGGGTCTA`, the E-score was 0.157.
`CTCGATGC` has an E-score of -0.156.
With `GAGTACTA` the E-score was -0.0658.
The E-score of `CATTTCGC` is reported as 0.106.
The E-score of `AGCAACAC` is reported as -0.108.
`AGCGAACC` has an E-score of -0.00615.
For `GGCCCCCA`, the E-score was -0.165.
The E-score of `AACTAAGT` is reported as -0.0542.
`CGAAAGCC` has an E-score of 0.0283.
For `ATGATCAA`, the E-score was -0.0378.

Set 4 — technique: RNA Bind-n-Seq; form: RNA; sample: in vitro; tested at: 365 nM; baseline: no-protein control; reading: higher = stronger binding
Target: RNA binding protein fox-1 homolog 2, RRM domain, GST-SBP tag (RBFOX2, Homo sapiens, UniProt O43251-10, residues 100-194)
Setting: natural RNA segment, single round, ends assumed
Residues (chain): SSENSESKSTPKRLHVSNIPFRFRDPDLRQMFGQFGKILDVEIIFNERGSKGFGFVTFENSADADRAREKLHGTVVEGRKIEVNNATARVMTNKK
`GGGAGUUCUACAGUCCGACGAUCAGAGAGACCUCAUCCUGCUCUUUUGUGAUGAACAUAUUCAUGAAAUGUGGAAGUCAGUACGAUCAAGUUGUUGACUGUGAUUAGAUCACAUCUUAAAUUCAUUUCUAGACUGGAAUUCUCGGGUGCCAA` — result for “RBNS enrichment (R)”: 0.252.
Under “RBNS enrichment (R)”, `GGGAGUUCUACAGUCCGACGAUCACUUUCUUGGAGAACCCCAUUGUGCACCCUGAGUUCUGCCUGUGCUUCGGCUGAUCCCAUAUUGGACCGGAUAGAGCUCAGCUCUUGCCUUUGUUGCUGCUAACACUGGAUGGAAUUCUCGGGUGCCAA` is recorded as 0.307.
Under “RBNS enrichment (R)”, `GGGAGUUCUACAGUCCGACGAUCUGGCCAGGGCAUCAGACACAGGAGGAUCCCAGAACGGCAGCACUGAGCCCCUGCUCCCAGAUCCCUCUGAACCGCCGAGCAACAGCAAAACUAUGUGACAACACUUCUCCUGGAAUUCUCGGGUGCCAA` is recorded as 0.575.
`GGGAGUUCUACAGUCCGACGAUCGAGUCACUGGAUAUCAGUGGAGACUACUGUGGUCUUCCCACGCAUGGGCCGUGGCUUUCAGUUCUCAGCACAGACAUCUGUGUUUUUCUCGUCCAACCCUAAGCCUCUUCUGGAAUUCUCGGGUGCCAA`: “RBNS enrichment (R)” 3.54.
For `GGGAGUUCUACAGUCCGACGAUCUAUGUAUAUAUGUGAUGUUUUCAUAUAUAUAUGUGUGUGUGUUUAAAUUUUGUAUCAUCAGGACUGACACCCAAUUUGACACUUUUUGUAUCUAGAAGACCCUCCAAAAAUGGAAUUCUCGGGUGCCAA`, “RBNS enrichment (R)” read 0.632.
Under “RBNS enrichment (R)”, `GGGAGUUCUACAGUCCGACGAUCCUGGGACGCUGUACGCAAUUCAGUGGUCUAGUCCUUUAUACCGACUCAGAUUCCUUAAGCAUGCAGAGUCACUCGAAUGAAAAAACAUACUCGACCUCUCCCUAAAAAGAUGGAAUUCUCGGGUGCCAA` is recorded as 4.62.
For `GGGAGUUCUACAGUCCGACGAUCCCUCUGCCCCCUGGGUUCAAGCGAUUCUCCUGCCUCAGCCUCCCGAGUAGCUGAGACUACAGGCACCUGCCACCAUACCCAGCUAAGUUAUGUAUUUUUAGUAGAGAUGGUGGAAUUCUCGGGUGCCAA`, “RBNS enrichment (R)” read 0.857.
`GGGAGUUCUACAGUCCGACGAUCGGAGCCGACCUGGGGCUGCACAUCCCUGCCCAUCCCCAGAAAGACUGUUCCUGUCAGGAUUUGUUUCCCUCUGCUGUGGCGGUGACUGCUUCUGGACCAGAACAGCUCCAUGGAAUUCUCGGGUGCCAA` — result for “RBNS enrichment (R)”: 0.216.

Some of these lines once more (set 4):
Under “RBNS enrichment (R)”, `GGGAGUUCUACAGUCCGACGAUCACUUUCUUGGAGAACCCCAUUGUGCACCCUGAGUUCUGCCUGUGCUUCGGCUGAUCCCAUAUUGGACCGGAUAGAGCUCAGCUCUUGCCUUUGUUGCUGCUAACACUGGAUGGAAUUCUCGGGUGCCAA` is recorded as 0.307.
Under “RBNS enrichment (R)”, `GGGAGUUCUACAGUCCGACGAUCUGGCCAGGGCAUCAGACACAGGAGGAUCCCAGAACGGCAGCACUGAGCCCCUGCUCCCAGAUCCCUCUGAACCGCCGAGCAACAGCAAAACUAUGUGACAACACUUCUCCUGGAAUUCUCGGGUGCCAA` is recorded as 0.575.
`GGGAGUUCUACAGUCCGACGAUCGAGUCACUGGAUAUCAGUGGAGACUACUGUGGUCUUCCCACGCAUGGGCCGUGGCUUUCAGUUCUCAGCACAGACAUCUGUGUUUUUCUCGUCCAACCCUAAGCCUCUUCUGGAAUUCUCGGGUGCCAA`: “RBNS enrichment (R)” 3.54.
For `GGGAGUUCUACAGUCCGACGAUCUAUGUAUAUAUGUGAUGUUUUCAUAUAUAUAUGUGUGUGUGUUUAAAUUUUGUAUCAUCAGGACUGACACCCAAUUUGACACUUUUUGUAUCUAGAAGACCCUCCAAAAAUGGAAUUCUCGGGUGCCAA`, “RBNS enrichment (R)” read 0.632.
Under “RBNS enrichment (R)”, `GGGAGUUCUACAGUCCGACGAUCCUGGGACGCUGUACGCAAUUCAGUGGUCUAGUCCUUUAUACCGACUCAGAUUCCUUAAGCAUGCAGAGUCACUCGAAUGAAAAAACAUACUCGACCUCUCCCUAAAAAGAUGGAAUUCUCGGGUGCCAA` is recorded as 4.62.
